# Experimental data from different studies.
# Numbered parts are unrelated; each lists some results of a single study. Values joined by “and” are separate records of one study, mostly repeats; a detail may differ.

# Study 1
# Target: Histone acetyltransferase KAT6A, both winged helices, GST fusion (KAT6A, Homo sapiens, UniProt Q92794, residues 1-181)
# Method: protein binding microarray
# Molecule type: double-stranded DNA, one strand shown
# Sample: in vitro
# Concentration: not given
# Notes: 8-mer, flanks averaged, mean of 2 arrays, mostly near background
# Baseline: not given
# Reading: higher = stronger binding
# Target sequence (chain): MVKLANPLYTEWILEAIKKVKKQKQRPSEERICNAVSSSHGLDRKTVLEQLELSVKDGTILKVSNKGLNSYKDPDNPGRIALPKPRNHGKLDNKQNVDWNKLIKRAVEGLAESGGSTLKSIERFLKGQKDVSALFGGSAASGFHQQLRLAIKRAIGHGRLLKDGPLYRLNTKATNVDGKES
Sequence,E-score
AGGCCCTC,-0.117
AATAAACC,-0.163
GAAGTCAC,-0.0202
CGATTACG,0.0408
AATGATAA,-0.0507

# Study 2
# Target: Sal-like protein 4, full length isoform B (SALL4, Homo sapiens, UniProt Q9UJQ4-2, residues 1-616)
# Method: universal PBM
# Molecule type: double-stranded DNA, one strand shown
# Sample: in vitro
# Concentration: not given
# Notes: 8-mer, flanks averaged, mean of replicates
# Reading: higher = stronger binding
# Residues (chain): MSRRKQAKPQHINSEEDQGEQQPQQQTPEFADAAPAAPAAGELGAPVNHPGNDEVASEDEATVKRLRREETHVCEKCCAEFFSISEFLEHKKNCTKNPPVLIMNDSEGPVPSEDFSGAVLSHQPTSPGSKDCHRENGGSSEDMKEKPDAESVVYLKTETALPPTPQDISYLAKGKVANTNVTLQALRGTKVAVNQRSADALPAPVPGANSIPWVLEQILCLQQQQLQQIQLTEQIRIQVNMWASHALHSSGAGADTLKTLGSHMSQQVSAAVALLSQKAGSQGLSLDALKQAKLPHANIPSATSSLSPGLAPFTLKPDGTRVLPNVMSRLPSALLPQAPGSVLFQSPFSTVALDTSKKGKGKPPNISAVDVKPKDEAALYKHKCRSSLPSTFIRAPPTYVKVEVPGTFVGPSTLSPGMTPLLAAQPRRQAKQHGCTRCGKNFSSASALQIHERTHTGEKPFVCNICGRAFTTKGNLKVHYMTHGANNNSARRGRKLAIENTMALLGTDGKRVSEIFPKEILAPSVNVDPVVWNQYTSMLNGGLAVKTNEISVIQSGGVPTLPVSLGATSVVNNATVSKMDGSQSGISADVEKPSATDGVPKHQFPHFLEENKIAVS
Sequence,E-score
AGGAAGAC,-0.129
ATCCAGAC,-0.107
ACTCGATC,-0.116
TTTGAAAA,0.34
CAGTAGGG,-0.176
AATATCTG,0.284

# Study 3
# Target: Prothrombin, mature alpha-thrombin (F2, Homo sapiens, UniProt P00734)
# Method: aptamer microarray, sandwich
# Molecule type: DNA with 2'F-ANA
# Sample: in vitro
# Concentration: 200 nM
# Notes: whole 15-mer aptamer, many near background
# With: Cy3 exosite-II aptamer, 400 nM
# Reading: higher = stronger binding
Sequence,mean fluorescence intensity [a.u.]
GGTTGGTGTGGTTGG (2'F-ANA at 2 4 7 8 11 15),331
GGTTGGTGTGGTTGG (2'F-ANA at 2 5 9 11 13 15),52.9
GGTTGGTGTGGTTGG (2'F-ANA at 1 2 3 6 9 12 13 14 15),227

# Further values, each from its own experiment
Substance,target,assay,test system,conditions,scale,measurement,value
"PhoQ, residues 284 288 289 292 302 303 GASLAW","PhoP, residues 12 14 15 18 19 LWHCS (Escherichia coli, UniProt P23836)","Sort-seq, item: YFP reporter",E. coli,"PhoQ-PhoP variant library, with: 10 µM Mg2+","baseline: high Mg2+ state, higher = stronger signaling",fold induction,7.58 and 11.2

# Excerpt of the above (study 3):
Sequence,mean fluorescence intensity [a.u.]
GGTTGGTGTGGTTGG (2'F-ANA at 2 5 9 11 13 15),52.9
